# Measurements pooled from the literature.
# Compare with care: the assays were run in different laboratories. “And” joins repeats or separate records; there may be more than shown. ± gives the spread as reported.
# KLRK1 with ULBP6: NKG2-D type II integral membrane protein, with ULBP6 (KLRK1, Homo sapiens, UniProt P26718)
# Sequence of UniProt P26718 (whole entry, looked up): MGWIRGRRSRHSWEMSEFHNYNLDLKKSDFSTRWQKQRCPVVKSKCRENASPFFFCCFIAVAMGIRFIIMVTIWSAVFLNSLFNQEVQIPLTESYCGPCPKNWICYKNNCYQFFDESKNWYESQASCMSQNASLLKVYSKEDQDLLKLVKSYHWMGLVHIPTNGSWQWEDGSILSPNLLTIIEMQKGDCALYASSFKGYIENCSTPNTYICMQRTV
# Sequence of UniProt P0AC78 (whole entry, looked up): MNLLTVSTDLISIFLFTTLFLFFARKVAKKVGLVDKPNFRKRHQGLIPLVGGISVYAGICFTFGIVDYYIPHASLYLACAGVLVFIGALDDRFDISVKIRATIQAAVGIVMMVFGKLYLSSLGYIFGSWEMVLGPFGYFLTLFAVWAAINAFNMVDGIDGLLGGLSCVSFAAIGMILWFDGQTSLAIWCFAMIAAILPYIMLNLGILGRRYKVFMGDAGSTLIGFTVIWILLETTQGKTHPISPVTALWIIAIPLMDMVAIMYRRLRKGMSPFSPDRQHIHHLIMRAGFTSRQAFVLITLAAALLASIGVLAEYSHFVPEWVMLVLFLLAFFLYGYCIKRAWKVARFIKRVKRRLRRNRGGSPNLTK
# Sequence of UniProt Q86TU7 (whole entry, looked up): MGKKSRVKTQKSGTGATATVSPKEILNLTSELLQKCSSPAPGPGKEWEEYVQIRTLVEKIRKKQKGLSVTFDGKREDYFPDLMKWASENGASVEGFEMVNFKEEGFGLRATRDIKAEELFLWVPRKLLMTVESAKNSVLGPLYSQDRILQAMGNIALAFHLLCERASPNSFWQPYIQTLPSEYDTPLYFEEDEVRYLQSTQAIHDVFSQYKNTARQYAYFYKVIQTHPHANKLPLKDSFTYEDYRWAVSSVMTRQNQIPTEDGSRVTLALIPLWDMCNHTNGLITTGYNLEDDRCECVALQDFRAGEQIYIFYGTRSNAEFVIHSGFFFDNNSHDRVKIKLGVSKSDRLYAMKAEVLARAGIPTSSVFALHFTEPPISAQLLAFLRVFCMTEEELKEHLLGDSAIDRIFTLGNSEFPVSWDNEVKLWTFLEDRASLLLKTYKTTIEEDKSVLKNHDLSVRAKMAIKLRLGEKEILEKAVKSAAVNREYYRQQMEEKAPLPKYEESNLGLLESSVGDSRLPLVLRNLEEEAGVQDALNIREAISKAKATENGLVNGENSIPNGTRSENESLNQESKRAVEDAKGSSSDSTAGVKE
# Sequence of UniProt O15294 (whole entry, looked up): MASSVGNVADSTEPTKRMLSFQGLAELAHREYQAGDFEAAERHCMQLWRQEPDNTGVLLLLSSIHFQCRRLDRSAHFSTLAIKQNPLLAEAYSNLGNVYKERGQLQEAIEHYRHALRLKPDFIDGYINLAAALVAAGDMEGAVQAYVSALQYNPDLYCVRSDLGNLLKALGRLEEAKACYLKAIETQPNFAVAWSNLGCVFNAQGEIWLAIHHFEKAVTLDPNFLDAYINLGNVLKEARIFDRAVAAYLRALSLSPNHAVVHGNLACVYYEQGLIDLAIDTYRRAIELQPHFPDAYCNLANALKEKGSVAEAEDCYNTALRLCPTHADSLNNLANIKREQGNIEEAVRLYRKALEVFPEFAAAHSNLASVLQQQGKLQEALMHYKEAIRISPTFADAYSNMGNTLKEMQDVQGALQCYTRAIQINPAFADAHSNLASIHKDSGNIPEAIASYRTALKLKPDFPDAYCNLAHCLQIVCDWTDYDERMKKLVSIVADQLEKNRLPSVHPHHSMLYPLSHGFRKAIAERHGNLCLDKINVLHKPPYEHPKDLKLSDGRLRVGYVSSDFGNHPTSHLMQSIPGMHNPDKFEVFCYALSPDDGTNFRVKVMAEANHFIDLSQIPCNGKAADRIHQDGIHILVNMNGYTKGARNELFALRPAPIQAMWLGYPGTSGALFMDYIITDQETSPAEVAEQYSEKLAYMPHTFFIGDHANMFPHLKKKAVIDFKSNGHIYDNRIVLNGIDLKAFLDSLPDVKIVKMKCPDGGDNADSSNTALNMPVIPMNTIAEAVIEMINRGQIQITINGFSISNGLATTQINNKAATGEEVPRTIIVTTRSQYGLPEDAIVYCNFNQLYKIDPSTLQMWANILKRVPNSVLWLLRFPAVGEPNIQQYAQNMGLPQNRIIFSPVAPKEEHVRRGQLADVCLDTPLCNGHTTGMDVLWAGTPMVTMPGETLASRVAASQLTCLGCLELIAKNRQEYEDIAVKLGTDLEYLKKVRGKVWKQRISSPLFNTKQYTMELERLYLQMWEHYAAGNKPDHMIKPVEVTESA
# Sequence of UniProt P11473 (whole entry, looked up): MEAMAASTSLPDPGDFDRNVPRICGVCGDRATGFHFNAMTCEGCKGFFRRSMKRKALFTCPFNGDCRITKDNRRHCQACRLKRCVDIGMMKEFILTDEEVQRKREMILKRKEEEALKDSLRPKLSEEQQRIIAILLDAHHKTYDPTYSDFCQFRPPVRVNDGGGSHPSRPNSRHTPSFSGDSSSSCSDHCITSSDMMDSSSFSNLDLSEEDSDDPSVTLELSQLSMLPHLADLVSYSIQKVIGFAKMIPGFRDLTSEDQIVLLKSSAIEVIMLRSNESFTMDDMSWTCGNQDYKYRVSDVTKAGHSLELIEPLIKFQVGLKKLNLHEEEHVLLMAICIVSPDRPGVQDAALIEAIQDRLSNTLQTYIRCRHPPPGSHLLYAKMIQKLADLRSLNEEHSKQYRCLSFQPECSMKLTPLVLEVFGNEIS
# Sequence of UniProt P50391 (whole entry, looked up): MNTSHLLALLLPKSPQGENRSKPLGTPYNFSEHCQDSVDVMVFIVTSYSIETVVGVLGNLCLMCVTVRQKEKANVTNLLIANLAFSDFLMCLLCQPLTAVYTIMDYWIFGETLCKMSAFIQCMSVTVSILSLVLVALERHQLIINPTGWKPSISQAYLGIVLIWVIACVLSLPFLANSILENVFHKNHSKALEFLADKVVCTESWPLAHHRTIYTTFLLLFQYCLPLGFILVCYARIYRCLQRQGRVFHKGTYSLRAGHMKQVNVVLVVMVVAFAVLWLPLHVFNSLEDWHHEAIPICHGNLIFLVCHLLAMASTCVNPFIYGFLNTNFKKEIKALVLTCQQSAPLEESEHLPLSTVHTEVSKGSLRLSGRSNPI
# Sequence of UniProt P28074 (whole entry, looked up): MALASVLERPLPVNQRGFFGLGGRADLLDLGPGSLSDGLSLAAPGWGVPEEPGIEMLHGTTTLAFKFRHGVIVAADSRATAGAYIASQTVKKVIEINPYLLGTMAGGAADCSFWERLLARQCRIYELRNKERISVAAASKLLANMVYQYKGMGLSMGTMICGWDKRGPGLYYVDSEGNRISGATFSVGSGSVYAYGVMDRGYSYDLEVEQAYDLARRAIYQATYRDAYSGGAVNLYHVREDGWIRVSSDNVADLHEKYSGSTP
# Sequence of UniProt P40261 (whole entry, looked up): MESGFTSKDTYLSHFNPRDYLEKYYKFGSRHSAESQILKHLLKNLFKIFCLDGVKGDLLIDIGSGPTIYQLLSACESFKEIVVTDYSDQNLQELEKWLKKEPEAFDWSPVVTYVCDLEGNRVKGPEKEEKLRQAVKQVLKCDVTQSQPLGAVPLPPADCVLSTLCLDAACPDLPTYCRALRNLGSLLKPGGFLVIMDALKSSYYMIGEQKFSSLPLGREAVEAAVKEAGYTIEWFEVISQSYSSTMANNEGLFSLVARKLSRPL
# Sequence of UniProt Q9HCG7 (whole entry, looked up): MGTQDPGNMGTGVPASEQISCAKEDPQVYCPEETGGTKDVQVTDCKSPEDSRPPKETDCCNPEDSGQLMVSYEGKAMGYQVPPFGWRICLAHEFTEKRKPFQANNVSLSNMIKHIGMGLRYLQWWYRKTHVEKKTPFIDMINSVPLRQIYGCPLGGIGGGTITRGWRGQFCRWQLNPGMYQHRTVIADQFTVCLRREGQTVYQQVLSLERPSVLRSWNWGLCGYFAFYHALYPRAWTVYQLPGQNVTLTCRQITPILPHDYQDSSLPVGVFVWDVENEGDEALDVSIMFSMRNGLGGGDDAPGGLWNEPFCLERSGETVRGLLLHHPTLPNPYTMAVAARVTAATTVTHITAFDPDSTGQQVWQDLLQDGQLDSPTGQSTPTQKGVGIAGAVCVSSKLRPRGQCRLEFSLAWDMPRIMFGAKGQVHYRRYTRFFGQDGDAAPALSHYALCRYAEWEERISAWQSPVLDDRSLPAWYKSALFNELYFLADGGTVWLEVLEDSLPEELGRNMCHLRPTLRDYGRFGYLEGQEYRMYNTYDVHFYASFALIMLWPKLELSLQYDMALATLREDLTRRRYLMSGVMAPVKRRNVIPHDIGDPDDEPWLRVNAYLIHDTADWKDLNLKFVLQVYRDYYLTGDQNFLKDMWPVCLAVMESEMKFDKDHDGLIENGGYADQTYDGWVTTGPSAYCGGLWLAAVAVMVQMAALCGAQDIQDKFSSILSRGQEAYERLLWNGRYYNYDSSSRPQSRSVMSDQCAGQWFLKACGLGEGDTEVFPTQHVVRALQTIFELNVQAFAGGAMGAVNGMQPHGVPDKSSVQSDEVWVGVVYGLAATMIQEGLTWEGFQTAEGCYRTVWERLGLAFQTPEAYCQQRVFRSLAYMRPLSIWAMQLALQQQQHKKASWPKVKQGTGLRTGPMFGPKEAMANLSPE
# Sequence of UniProt P30101 (whole entry, looked up): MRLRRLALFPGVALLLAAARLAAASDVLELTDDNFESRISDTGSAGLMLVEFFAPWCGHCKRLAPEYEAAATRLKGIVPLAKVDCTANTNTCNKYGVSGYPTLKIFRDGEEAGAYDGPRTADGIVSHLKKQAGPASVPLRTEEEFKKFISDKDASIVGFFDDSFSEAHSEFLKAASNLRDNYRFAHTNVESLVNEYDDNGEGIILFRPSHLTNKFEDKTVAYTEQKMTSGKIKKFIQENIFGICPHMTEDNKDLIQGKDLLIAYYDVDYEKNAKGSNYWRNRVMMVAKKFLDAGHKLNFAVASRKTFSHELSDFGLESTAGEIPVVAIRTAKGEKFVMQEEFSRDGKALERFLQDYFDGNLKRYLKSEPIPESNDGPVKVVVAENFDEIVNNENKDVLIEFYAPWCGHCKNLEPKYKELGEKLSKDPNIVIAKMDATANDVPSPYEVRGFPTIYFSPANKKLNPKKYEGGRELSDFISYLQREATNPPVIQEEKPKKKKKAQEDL
Compound,tested on,assay,system,setting,quantity,value
COc1cc2oc(=O)c3c4cc(OC)c(O)cc4oc3c2cc1O,"Genome polyprotein, NS5B polymerase (Hepatitis C virus genotype 1b, UniProt P26663)","NS5B RNA polymerase activity, inhibitor","hepatitis C virus, genotype 1b",together with: poly(rA)/U12,IC50,311 µM
CC(C)C[C@H](NC(=O)[C@H](C)NC(=O)[C@H](CC(N)=O)NC(=O)[C@H](CCC(=O)O)NC(=O)[C@@H](N)CCCCN)C(=O)N[C@@H](CC(C)C)C(=O)N[C@@H](CCCNC(=N)N)C(=O)N[C@@H](Cc1ccc(O)cc1)C(=O)N[C@@H](CC(C)C)C(=O)N[C@@H](CC(C)C)C(=O)N[C@@H](CC(=O)O)C(=O)N[C@@H](CCCCN)C(=O)N[C@@H](CC(=O)O)C(N)=O,"Vitamin D3 receptor (VDR, Homo sapiens, UniProt P11473)","reporter gene, antagonist, dual-luciferase",MCF7,"16 h, together with: calcitriol 30 nM",IC50,> 100 µM
CC(C)C[C@H](NC(=O)[C@H](C)NC(=O)[C@H](CO)NC(=O)[C@H](CC(=O)O)NC(=O)[C@H](CCC(=O)O)NC(=O)[C@@H]1CCCN1C(=O)[C@H](CC(=O)O)NC(=O)[C@@H](N)CCC(=O)O)C(=O)N[C@@H](CC(C)C)C(=O)N[C@@H](CCC(=O)O)C(=O)N[C@@H](CC(=O)O)C(=O)N1CCC[C@H]1C(=O)O,"HLA-DRA/HLA-DRB3 (Homo sapiens, UniProt P01903+P79483)","binding, competition binding",purified HLA-DR,"48 h, together with: radiolabelled probe peptide 0.1-1 nM",IC50,> 5 µM
CC[C@H](C)[C@@H]1NC(=O)[C@H](C)NC(=O)[C@H](Cc2ccc(O)cc2)NC(=O)[C@H](CCCCN)NC(=O)[C@H](CCCCN)NC(=O)CNC(=O)[C@H](C)NC(=O)[C@H]([C@@H](C)CC)NC(=O)[C@H]([C@@H](C)CC)NC(=O)[C@H](Cc2ccccc2)NC(=O)[C@H](CC(C)C)NC(=O)[C@H](Cc2ccc(O)cc2)NC(=O)[C@H](CCCNC(=N)N)NC(=O)[C@@H](Cc2ccc(O)cc2)NC(=O)CSC[C@@H](C(=O)NCC(N)=O)NC(=O)[C@H](CCCNC(=N)N)NC(=O)[C@H](C(C)C)NC1=O,"Nicotinamide N-methyltransferase (NNMT, Homo sapiens, UniProt P40261)","enzyme activity, inhibitor, mass spectrometry",,,IC50,7.06 µM
CC(C)[C@H](NC(=O)[C@H](C)NC(=O)[C@@H](N)Cc1ccccc1)C(=O)N1CCC[C@H]1C(=O)O,"Dipeptidyl peptidase 4 (DPP4, Homo sapiens, UniProt P27487)","enzyme activity, inhibitor, absorbance",,,IC50,427 µM
CN(C)C(=O)[C@@H](NC(=O)c1ccccc1-c1ccc(C(F)(F)F)cc1)c1cccc(C(F)(F)F)c1,KLRK1 with ULBP6,,,,IC50,2.7 ± 1.1 µM
CCCCCCCCCCCC1N=C(N)N=C(N)N1c1ccc(Cl)cc1 (racemic),"Dihydrofolate reductase (folA, Staphylococcus aureus, UniProt P0A017)","enzyme activity, inhibitor",,,IC50,0.6 to 1.7 µM and 0.9 µM
COC1C(C(OC2OC(C(=O)NC3CCCCNC3=O)=CC(O)C2O)C(N)=O)OC(n2ccc(=O)[nH]c2=O)C1OC (stereo not shown),"Undecaprenyl-phosphate alpha-N-acetylglucosaminyl 1-phosphate transferase (wecA, Escherichia coli, UniProt P0AC78)",,,,IC50,0.035 ± 9.14 µM
C#CCCC(=O)N[C@H]1CSCc2cccc(c2)CSCCNC(=O)[C@H](CCC(=O)O)NC(=O)[C@H](CCC(=O)O)NC(=O)[C@H](Cc2ccccc2)NC(=O)[C@@H]2CCCN2C(=O)[C@H](CC(N)=O)NC1=O,"EH domain-containing protein 1, EH domain (Homo sapiens, UniProt Q9H4M9)",,,,IC50,88.1 ± 1.5 µM
CCCC[C@H](NC(=O)CNC(=O)CNC(=O)c1ccc(NN)nc1)C(=O)N[C@H]1CC(=O)NCCCC[C@@H](C(N)=O)NC(=O)[C@H](Cc2c[nH]c3ccccc23)NC(=O)[C@H](CCCNC(=N)N)NC(=O)[C@@H](Cc2ccccc2)NC(=O)[C@H](Cc2c[nH]cn2)NC1=O [technetium-99m labelled],,,"C57 mouse, B16/F1 melanoma-bearing, tumor","intravenous, 4 h",tissue uptake,13.2 ± 2.35 %ID/g
N#Cc1cn([C@@H]2O[C@H](CSCC[C@H](N)C(=O)O)[C@@H](O)[C@H]2O)c2ncnc(N)c12,"Actin-histidine N-methyltransferase (SETD3, Homo sapiens, UniProt Q86TU7)","enzyme activity, inhibitor, radiometric",,,IC50,> 50 µM
CC[C@H](C)[C@H](NC(=O)[C@H](Cc1ccc(O)cc1)NC(=O)[C@H](CCCNC(=N)N)NC(=O)[C@H](CCCNC(=N)N)NC(=O)[C@H](CC(C)C)NC(=O)[C@H](CC(=O)O)NC(=O)[C@H](C)NC(=O)[C@H](C)NC(=O)[C@H](Cc1ccc(O)cc1)NC(=O)[C@H](CCC(=O)O)NC(=O)[C@H](CC(C)C)NC(=O)[C@@H]1CCCN1C(=O)[C@H](C)N)C(=O)N[C@@H](CC(N)=O)C(=O)N[C@@H](CCSC)C(=O)N[C@@H](CC(C)C)C(=O)N[C@H](C(=O)N[C@@H](CCCNC(=N)N)C(=O)N1CCC[C@H]1C(=O)N[C@@H](CCCNC(=N)N)C(=O)N[C@@H](Cc1ccc(O)cc1)C(N)=O)[C@@H](C)O,"Neuropeptide Y receptor type 4 (NPY4R, Homo sapiens, UniProt P50391)",radioligand binding,"BHK membranes, transfected",,IC50,0.027 µM
OC[C@@H]1[C@@H](O)[C@H](O)[C@@H](O)[C@H]2N[C@@H]12,"Beta-glucosidase (GBA2, Homo sapiens, UniProt Q9HCG7)","enzyme activity, inhibitor",,"pH 5.8, with preincubation",IC50,> 100 µM
COC(=O)C1CN1S(=O)(=O)c1cccc2ccccc12 (stereo not shown),"Protein disulfide-isomerase A3 (PDIA3, Homo sapiens, UniProt P30101)","enzyme activity, inhibitor, absorbance",,pH 7.6,IC50,93 µM
O=S(=O)(O)CCOCC1CSSCC(COCCS(=O)(=O)O)SS1 (stereo not shown),"Response regulator PhoP (Mycobacterium tuberculosis, UniProt P71814)",DNA binding,,100 µM,inhibition,> 50%
C[C@H](CS)C(=O)Nc1cccc(-c2nn[nH]n2)c1,"Metallo-beta-lactamase type 2 (Serratia marcescens, UniProt P52699)",inhibitor,,"10 min preincubation, together with: FC5 substrate",IC50,0.71 µM
Cc1cccc(-c2nc(Nc3ccncn3)c3c(C)csc3n2)n1,"Cytochrome P450 2C19 (CYP2C19, Homo sapiens, UniProt P33261)",inhibitor,,,IC50,0.7 µM
CC[C@@H]1C(=O)N(C)c2cnc(Nc3ccc(C(=O)NCCCC[C@H](NC(=O)[C@@H](NC(=O)[C@H](CO)NC(=O)[C@H](Cc4cncn4CCCCCCCCc4ccccc4)NC(=O)[C@H](CC(C)C)NC(=O)[C@@H]4CCCN4C(C)=O)[C@@H](C)CP(=O)(O)O)C(N)=O)cc3OC)nc2N1C1CCCC1,"Serine/threonine-protein kinase PLK1 (PLK1, Homo sapiens, UniProt P53350)","enzyme activity, inhibitor",,,IC50,0.0032 ± 3.9e-05 µM
Cc1cccc([C@H](NC(=O)c2cnccc2-c2ccc(C(F)(F)F)cc2)C(=O)N(C)C)c1,KLRK1 with ULBP6,"ligand binding, inhibitor, TR-FRET",HEK293 expressing NKG2D and DAP10,together with: ULBP6-AF647,IC50,0.9 ± 0.3 µM
N=C(N)NCCC[C@@H]1NC(=O)[C@H](CCCCNC(=O)CCOCCOCCOCCOCCNC(=O)CN2CCN(CC(=O)O)CCN(CC(=O)O)CCN(CC(=O)O)CC2)NC(=O)[C@@H](Cc2ccccc2)NC(=O)[C@H](CC(=O)O)NC(=O)CNC1=O [indium-111 labelled],,,"female athymic nude mice, muscle","intravenous, 3 µCi, 72 h, U-87 MG glioma xenograft",tissue uptake,0.13 ± 0.05 %ID/g
CNC(=O)NC(=N)NCCC[C@@H]1NC(=O)[C@@H](C)NC(=O)C[C@@H](C(=O)O)NC(=O)C[C@@H](C(=O)O)NC(=O)[C@H](Cc2ccc(O)cc2)N(C)C1=O,"Endochitinase B1 (Aspergillus fumigatus, UniProt Q873X9)","enzyme activity, inhibitor, fluorometric",,"10 min, pH 5.5, 37 °C, together with: 20 µM 4-MU-chitobiose",IC50,0.144 µM
CC[N+](CC)(CC)CC,"Potassium channel protein kcv (A250R, Paramecium bursaria Chlorella virus 1, UniProt Q84568, L70E)",,,,IC50,79000 ± 11000 µM
CN[C@](C)(C[18F])C(=O)O,MDA-MB-468 tumour model,,"host not given, lung","15 min, tumour-bearing",tracer uptake,3.7 %ID/g
C[C@H](CS)C(=O)Nc1ccccc1-c1nnn(C)n1,"Metallo-beta-lactamase type 2 (blaNDM-1, Klebsiella pneumoniae, UniProt C7C422)","enzyme activity, inhibitor, fluorescence",,with preincubation,IC50,> 100 µM
N=C(N)NCCC[C@@H]1NC(=O)[C@H](CCCCNC(=O)CCOCCOCCOCCOCCNC(=O)CC[C@H](NC(=O)CCOCCOCCOCCOCCNC(=O)CC[C@H](NC(=O)CN2CCN(CC(=O)O)CCN(CC(=O)O)CCN(CC(=O)O)CC2)C(=O)NCCOCCOCCOCCOCCC(=O)N[C@@H](CCC(=O)NCCOCCOCCOCCOCCC(=O)NCCCC[C@@H]2NC(=O)[C@@H](Cc3ccccc3)NC(=O)[C@H](CC(=O)O)NC(=O)CNC(=O)[C@H](CCCNC(=N)N)NC2=O)C(=O)NCCOCCOCCOCCOCCC(=O)NCCCC[C@@H]2NC(=O)[C@@H](Cc3ccccc3)NC(=O)[C@H](CC(=O)O)NC(=O)CNC(=O)[C@H](CCCNC(=N)N)NC2=O)C(=O)NCCOCCOCCOCCOCCC(=O)NCCCC[C@@H]2NC(=O)[C@@H](Cc3ccccc3)NC(=O)[C@H](CC(=O)O)NC(=O)CNC(=O)[C@H](CCCNC(=N)N)NC2=O)NC(=O)[C@@H](Cc2ccccc2)NC(=O)[C@H](CC(=O)O)NC(=O)CNC1=O [indium-111 labelled],,,"female athymic nude mice, intestine","intravenous, 3 µCi, 1 h, U-87 MG glioma xenograft",tissue uptake,11.5 %ID/g
C=C(NC(=O)C(=C)NC(=O)c1csc(C2=NC3c4csc(n4)C4NC(=O)c5csc(n5)C(C(C)(O)C(C)O)NC(=O)C5CSC(=N5)C(=CC)NC(=O)C(C(C)O)NC(=O)c5csc(n5)C3(CC2)NC(=O)C(C)NC(=O)C(=C)NC(=O)C(C(C)CC)NC2C=Cc3c(C(C)O)cc(nc3C2O)C(=O)OC4C)n1)C(N)=O (stereo not shown),"Proteasome Macropain subunit MB1 (PSMB5, Homo sapiens, UniProt P28074)","chymotrypsin-like activity, inhibitor",purified human 20S proteasome,"37 °C, 15 min preincubation, together with: Suc-Leu-Leu-Val-Tyr-AMC",IC50,6.3 ± 0.4 µM
NC[C@@H]1O[C@H](O[C@H]2[C@@H](O)[C@H](O[C@@H]3[C@@H](O)[C@H](N)C[C@H](N)[C@H]3O[C@H]3O[C@H](CN)[C@@H](O)[C@H](O)[C@H]3N)O[C@@H]2Cn2cc(COCCCCCCCCOCc3cn(C[C@H]4O[C@@H](O[C@@H]5[C@@H](O)[C@H](N)C[C@H](N)[C@H]5O[C@H]5O[C@H](CN)[C@@H](O)[C@H](O)[C@H]5N)[C@H](O)[C@@H]4O[C@H]4O[C@@H](CN)[C@@H](O)[C@H](O)[C@H]4N)nn3)nn2)[C@H](N)[C@@H](O)[C@@H]1O,HIV-1 TAR RNA,"Tat peptide binding, FRET competition",,"pH 7.4, 25 °C",IC50,0.061 ± 0.013 µM
COc1ccccc1C(NS(=O)(=O)c1cc2ccc(O)nc2cc1Cl)C(=O)N(CC(=O)NCCn1cc(COCCOCCOCCOCCNc2cccc3c2C(=O)N(C2CCC(=O)NC2=O)C3=O)nn1)Cc1cccs1 (mixture of isomers),"UDP-N-acetylglucosamine--peptide N-acetylglucosaminyltransferase 110 kDa subunit (OGT, Homo sapiens, UniProt O15294)","enzyme activity, inhibitor, fluorescence",,,IC50,1.52 µM

# A few entries again:
Compound,tested on,assay,system,setting,quantity,value
CN(C)C(=O)[C@@H](NC(=O)c1ccccc1-c1ccc(C(F)(F)F)cc1)c1cccc(C(F)(F)F)c1,KLRK1 with ULBP6,,,,IC50,2.7 ± 1.1 µM
CCCCCCCCCCCC1N=C(N)N=C(N)N1c1ccc(Cl)cc1 (racemic),"Dihydrofolate reductase (folA, Staphylococcus aureus, UniProt P0A017)","enzyme activity, inhibitor",,,IC50,0.6 to 1.7 µM and 0.9 µM
COC1C(C(OC2OC(C(=O)NC3CCCCNC3=O)=CC(O)C2O)C(N)=O)OC(n2ccc(=O)[nH]c2=O)C1OC (stereo not shown),"Undecaprenyl-phosphate alpha-N-acetylglucosaminyl 1-phosphate transferase (wecA, Escherichia coli, UniProt P0AC78)",,,,IC50,0.035 ± 9.14 µM
